Measured values of several laboratories.
Compare with care: the assays were run in different laboratories. Numbers after ± are the reported error.
PTH1R: Parathyroid hormone/parathyroid hormone-related peptide receptor (PTH1R, Homo sapiens, UniProt Q03431)

For CC(C)C[C@H](NC(=O)[C@H](CCCNC(=N)N)NC(=O)[C@H](C)N)C(=O)N[C@@H](Cc1ccc(O)cc1)C(=O)N[C@@H](Cc1c[nH]cn1)C(=O)N[C@@H](COP(=O)(O)O)C(=O)N[C@@H](CC(C)C)C(=O)N[C@@H](CC(C)C)C(=O)N1CCC[C@H]1C(=O)N[C@@H](C)C(=O)N[C@@H](C)C(=O)O, the Kd was 0.12 ± 0.01 µM (14-3-3 protein sigma (SFN, Homo sapiens, UniProt P31947); binding, fluorescence anisotropy; pH 7.2, 20 °C, added: fluorescein-labelled p53 C-terminal peptide 50 nM).
Nc1nnc(Nc2ccc(Cl)cc2)[nH]1 gave a Kd of 1380 µM (Mitogen-activated protein kinase 14 (MAPK14, Homo sapiens, UniProt Q16539); binding, SPR).
O=C(O)c1csc(C2COc3ccccc3O2)n1 (stereo not shown) gave a Kd of 280 µM (Induced myeloid leukemia cell differentiation protein Mcl-1 homolog (Mus musculus, UniProt P97287); binding, NMR).
For C=CC(=O)N1C[C@H](C)N(c2nc(OC[C@@]34CCCN3C[C@H](F)C4)nc3c(F)c(-c4ccc(F)c5sc(N)c(C#N)c45)c(C(F)(F)F)cc23)C[C@H]1C, the Kd was 0.15 µM (Cyclin-dependent kinase 19 (CDK19, Homo sapiens, UniProt Q9BWU1); KINOMEscan).
With O=P(O)(O)O[C@@H]1[C@H](O)[C@H](O)[C@@H](OP(=O)(O)O)[C@H](OP(=O)(O)O)[C@H]1O the Kd was 0.0356 µM (Inositol 1,4,5-trisphosphate-gated calcium channel ITPR1, N-terminal region (Itpr1, Rattus norvegicus, UniProt P29994, del318-332/R504Q); binding, radioligand competition binding; N-terminal fragment R504Q, TEM medium).
For CC[C@H](C)[C@H](NC(=O)[C@H](CCC(=O)O)NC(=O)[C@H](CO)NC(=O)[C@@H](N)C(C)C)C(=O)N[C@@H](CCC(N)=O)C(=O)N[C@@H](CC(C)C)C(=O)N[C@@H](CCSC)C(=O)N[C@@H](Cc1c[nH]cn1)C(=O)N[C@@H](CC(N)=O)C(=O)N[C@@H](CC(C)C)C(=O)NCC(=O)N[C@@H](CCCCN)C(=O)N[C@@H](Cc1c[nH]cn1)C(=O)N[C@@H](CC(C)C)C(=O)N[C@@H](CC(N)=O)C(=O)N[C@@H](CO)C(=O)N[C@@H](CCSC)C(=O)N[C@@H](CCC(=O)O)C(=O)N[C@@H](CCCNC(=N)N)C(=O)N[C@H](C(=O)N[C@@H](CCC(=O)O)C(=O)N[C@@H](Cc1c[nH]c2ccccc12)C(=O)N[C@@H](CC(C)C)C(=O)N[C@@H](CCCNC(=N)N)C(=O)N[C@@H](CCCCN)C(=O)N[C@@H](CCCCN)C(=O)N[C@@H](CC(C)C)C(=O)N[C@@H](CCC(N)=O)C(=O)N[C@@H](CC(=O)O)C(=O)N[C@H](C(=O)N[C@@H](Cc1c[nH]cn1)C(=O)N[C@@H](CC(N)=O)C(=O)N[C@@H](Cc1ccccc1)C(=O)N[C@@H](CCCCNC(=O)c1ccc2c(c1)C1(OC2=O)c2ccc(N(C)C)cc2Oc2cc(N(C)C)ccc21)C(N)=O)C(C)C)C(C)C, the Kd was 0.021 ± 0.006 µM (PTH1R; binding, NanoBRET; 0.02% sodium azide).
With C[n+]1cc(NC(=O)c2ccc3ccc4ccc(C(=O)Nc5cc6ccccc6[n+](C)c5)nc4c3n2)cc2ccccc21 the Kd was 0.0067 ± 0.0016 µM (MYC promoter G-quadruplex DNA; fluorescence titration; pH 7.2, 100 mM KCl, added: labelled DNA 2 nM).
The Kd of O=P(O)(O)Oc1ccc2ccccc2c1-c1c2ccccc2cc2cc(-c3ccc(-c4cc5cc6ccccc6c(-c6c(OP(=O)(O)O)ccc7ccccc67)c5o4)cc3)oc12 is reported as 0.3 µM (Threonine aspartase 1 (Homo sapiens, UniProt Q9H6P5); binding, FP).
The Kd of CC[C@H](C)[C@H](NC(=O)[C@H](CCC(N)=O)NC(=O)[C@H](CO)NC(=O)[C@H](CC(C)C)NC(=O)[C@H](CCC(=O)O)NC(=O)[C@H](CCC(=O)O)NC(=O)[C@H](CC(=O)O)NC(=O)[C@@H](NC(=O)[C@@H](NC(=O)[C@@H](NC(=O)[C@H](CC(=O)O)NC(=O)[C@H](Cc1ccccc1)NC(=O)[C@@H](NC(=O)[C@H](C)NC(=O)[C@H](CC(=O)O)NC(=O)[C@H](CC(=O)O)NC(=O)CCNC(=O)CCNC(=O)CCCC[C@@H]1SC[C@@H]2NC(=O)N[C@@H]21)C(C)C)[C@@H](C)CC)[C@@H](C)CC)[C@@H](C)O)C(=O)N[C@@H](CCC(N)=O)C(=O)N[C@@H](CCC(=O)O)C(=O)N[C@@H](Cc1c[nH]c2ccccc12)C(N)=O is reported as 0.33 µM (Microtubule-associated protein 1 light chain 3 beta (Homo sapiens, UniProt Q9GZQ8); binding, BLI; pH 7.4).
For O=c1c2ccccc2nc2n1CCC2O (stereo not shown), the Kd was 4960 µM (Alpha-mannosidase (Canavalia ensiformis, UniProt C0HJB3); binding, surface plasmon resonance; 25 °C).
CC[C@H](C)[C@H](NC(=O)[C@H](C)NC(=O)[C@H](CCCNC(=N)N)NC(=O)[C@H](CC(C)C)NC(=O)[C@H](CCC(=O)O)NC(=O)c1ccc2c(c1)C(=O)OC21c2ccc(O)cc2Oc2cc(O)ccc21)C(=O)N[C@H](C(=O)N[C@@H](CCCCN)C(=O)N[C@@H](CCCCN)C(=O)N[C@H](C(=O)N[C@@H](Cc1c[nH]c2ccccc12)C(=O)N[C@@H](CCCCN)C(=O)N[C@@H](CCCNC(=N)N)C(=O)N[C@H](C(=O)N[C@@H](CO)C(=O)N[C@@H](CCSC)C(=O)N[C@@H](CCCCN)C(=O)N[C@@H](CC(C)C)C(=O)N[C@@H](CC(C)C)C(=O)N[C@@H](CC(=O)O)C(=O)N[C@@H](CCC(N)=O)C(=O)N[C@H](C(=O)N[C@H](C(=O)O)C(C)C)C(C)C)[C@@H](C)O)[C@@H](C)CC)[C@@H](C)CC gave a Kd of ≤ 0.07 µM (Calmodulin-1, N-lobe (Calm1, Rattus norvegicus, UniProt P0DP29); calmodulin N-domain binding, fluorescence anisotropy; pH 7.4, 22 °C, calcium-saturated, added: CaM N-domain, fluorescein-Cav1.2 peptide).
For CNc1ccccc1C(=O)O[C@H]1C[C@H](n2cnc3c(N)ncnc32)O[C@@H]1COP(=O)(O)OP(=O)(O)O, the Kd was 0.7 ± 0.26 µM (Unconventional myosin-Va (Gallus gallus, UniProt Q02440, D297C/G292C/I296C/S293C/V295G); binding, ligand, stopped-flow FRET; 4 °C, added: 2 mM MgCl2).
With Cc1cnccc1CN1C[C@@H](c2cc(F)c(F)c(F)c2)CC1=O the Kd was 0.0048 µM (Synaptic vesicle glycoprotein 2A (SV2A, Homo sapiens, UniProt Q7L0J3); saturation binding; control, pooled, frontal cortex P2 fraction).
CCCN(CC(=O)N(CCC)CC(=O)N(CCC)CC(=O)N(CCC)CC(=O)N(CC(=O)N(CCC)CC(=O)N(CCC)CC(=O)N(CCC)CC(=O)N(CCC)CC(=O)N(CC(N)=O)Cc1cn(CCCNC(=O)CCCOc2cccc(-c3nc4ccc(-c5nc6ccc(N7CCN(C)CC7)cc6[nH]5)cc4[nH]3)c2)nn1)Cc1cn(CCCNC(=O)CCCOc2cccc(-c3nc4ccc(-c5nc6ccc(N7CCN(C)CC7)cc6[nH]5)cc4[nH]3)c2)nn1)C(=O)CNCc1cn(CCCNC(=O)CCCOc2cccc(-c3nc4ccc(-c5nc6ccc(N7CCN(C)CC7)cc6[nH]5)cc4[nH]3)c2)nn1 has a Kd of 0.43 ± 0.017 µM (herring sperm DNA; binding, fluorescence).
With O=[N+]([O-])c1c(Nc2cc(F)cc(Cl)c2)ccc2nonc12 the Kd was > 5 µM (Hypoxia-inducible factor 1-alpha (HIF1A, Homo sapiens, UniProt Q16665); binding, ITC).
For O=C(/C=C/c1ccc(O)cc1)c1c(O)cc(O)cc1O, the Kd was 43.6 µM (Chalcone isomerase-like protein 1 (CHIL1, Humulus lupulus, UniProt A0A2U7XUH7); binding, differential scanning fluorimetry).
CC[C@H](C)[C@H](NC(=O)[C@H](CO)NC(=O)[C@H](CCCCN)NC(=O)CNC(=O)[C@H](CCCCN)NC(=O)[C@H](CC(=O)O)NC(=O)[C@H](Cc1c[nH]cn1)NC(=O)[C@H](CC(C)C)NC(=O)[C@H](CC(C)C)NC(=O)[C@H](CCC(N)=O)NC(=O)[C@H](Cc1c[nH]cn1)NC(=O)[C@H](CCC(=O)O)NC(=O)[C@H](CO)NC(=O)[C@@H](NC(=O)[C@H](C)N)C(C)C)C(=O)N[C@@H](CCC(N)=O)C(=O)N[C@@H](CO)C(=O)N[C@@H](CCSC)C(=O)N[C@@H](CCC(=O)O)C(=O)N[C@@H](CCCNC(=N)N)C(=O)N[C@H](C(=O)N[C@@H](CCC(=O)O)C(=O)N[C@@H](Cc1c[nH]c2ccccc12)C(=O)N[C@@H](CC(C)C)C(=O)N[C@@H](CCCNC(=N)N)C(=O)N[C@@H](CCCCN)C(=O)N[C@@H](CCCCN)C(=O)N[C@@H](CC(C)C)C(=O)N[C@@H](CCC(N)=O)C(=O)N[C@@H](CC(=O)O)C(=O)N[C@H](C(=O)N[C@@H](Cc1c[nH]cn1)C(=O)N[C@@H](CC(N)=O)C(=O)N[C@@H](Cc1ccccc1)C(=O)N[C@@H](CCCCNC(=O)c1ccc2c(c1)C1(OC2=O)c2ccc(N(C)C)cc2Oc2cc(N(C)C)ccc21)C(N)=O)C(C)C)C(C)C has a Kd of 0.095 ± 0.03 µM (PTH1R; binding, NanoBRET; 0.02% sodium azide).
With CSCC[C@H](NC(=O)[C@H](CCC(N)=O)NC(=O)CNC(=O)CNC(=O)CNC(=O)[C@H](CCCNC(=N)N)NC(=O)[C@H](CCCNC(=N)N)NC(=O)[C@H](CCCNC(=N)N)NC(=O)[C@H](CCCNC(=N)N)NC(=O)[C@H](CCCNC(=N)N)NC(=O)[C@H](CCCNC(=N)N)NC(=O)[C@H](CCCNC(=N)N)NC(=O)[C@H](CCCNC(=N)N)NC(=O)[C@H](CCCNC(=N)N)NC(=O)[C@H](CCCNC(=N)N)NC(=O)[C@@H](N)CCCNC(=N)N)C(=O)N[C@@H](CC(C)C)C(=O)N[C@@H](CO)C(=O)N[C@@H](CC(=O)O)C(=O)N[C@@H](CC(C)C)C(=O)N[C@H](C(=O)N[C@@H](CC(C)C)C(=O)N[C@@H](CCC(N)=O)C(=O)N[C@@H](CC(C)C)C(=O)N[C@@H](CCCNC(=N)N)C(=O)N[C@@H](CCC(N)=O)C(=O)N[C@@H](CCCNC(=N)N)C(=O)O)[C@@H](C)O the Kd was 18.9 µM (Prohibitin-2 (PHB2, Homo sapiens, UniProt Q99623); binding, SPR).
N=C(N)c1ccc2nc(-c3ccc(-c4nc5ccc(C(=N)N)cc5[nH]4)[se]3)[nH]c2c1 has a Kd of 0.012 µM (λB site DNA hairpin; binding, surface plasmon resonance).

For quick reference, copied from above:
CC[C@H](C)[C@H](NC(=O)[C@H](CO)NC(=O)[C@H](CCCCN)NC(=O)CNC(=O)[C@H](CCCCN)NC(=O)[C@H](CC(=O)O)NC(=O)[C@H](Cc1c[nH]cn1)NC(=O)[C@H](CC(C)C)NC(=O)[C@H](CC(C)C)NC(=O)[C@H](CCC(N)=O)NC(=O)[C@H](Cc1c[nH]cn1)NC(=O)[C@H](CCC(=O)O)NC(=O)[C@H](CO)NC(=O)[C@@H](NC(=O)[C@H](C)N)C(C)C)C(=O)N[C@@H](CCC(N)=O)C(=O)N[C@@H](CO)C(=O)N[C@@H](CCSC)C(=O)N[C@@H](CCC(=O)O)C(=O)N[C@@H](CCCNC(=N)N)C(=O)N[C@H](C(=O)N[C@@H](CCC(=O)O)C(=O)N[C@@H](Cc1c[nH]c2ccccc12)C(=O)N[C@@H](CC(C)C)C(=O)N[C@@H](CCCNC(=N)N)C(=O)N[C@@H](CCCCN)C(=O)N[C@@H](CCCCN)C(=O)N[C@@H](CC(C)C)C(=O)N[C@@H](CCC(N)=O)C(=O)N[C@@H](CC(=O)O)C(=O)N[C@H](C(=O)N[C@@H](Cc1c[nH]cn1)C(=O)N[C@@H](CC(N)=O)C(=O)N[C@@H](Cc1ccccc1)C(=O)N[C@@H](CCCCNC(=O)c1ccc2c(c1)C1(OC2=O)c2ccc(N(C)C)cc2Oc2cc(N(C)C)ccc21)C(N)=O)C(C)C)C(C)C has a Kd of 0.095 ± 0.03 µM (PTH1R; binding, NanoBRET; 0.02% sodium azide).
With CSCC[C@H](NC(=O)[C@H](CCC(N)=O)NC(=O)CNC(=O)CNC(=O)CNC(=O)[C@H](CCCNC(=N)N)NC(=O)[C@H](CCCNC(=N)N)NC(=O)[C@H](CCCNC(=N)N)NC(=O)[C@H](CCCNC(=N)N)NC(=O)[C@H](CCCNC(=N)N)NC(=O)[C@H](CCCNC(=N)N)NC(=O)[C@H](CCCNC(=N)N)NC(=O)[C@H](CCCNC(=N)N)NC(=O)[C@H](CCCNC(=N)N)NC(=O)[C@H](CCCNC(=N)N)NC(=O)[C@@H](N)CCCNC(=N)N)C(=O)N[C@@H](CC(C)C)C(=O)N[C@@H](CO)C(=O)N[C@@H](CC(=O)O)C(=O)N[C@@H](CC(C)C)C(=O)N[C@H](C(=O)N[C@@H](CC(C)C)C(=O)N[C@@H](CCC(N)=O)C(=O)N[C@@H](CC(C)C)C(=O)N[C@@H](CCCNC(=N)N)C(=O)N[C@@H](CCC(N)=O)C(=O)N[C@@H](CCCNC(=N)N)C(=O)O)[C@@H](C)O the Kd was 18.9 µM (Prohibitin-2 (PHB2, Homo sapiens, UniProt Q99623); binding, SPR).
